Measurements pooled from the literature.
Each numbered part is a random draw from the data of one study; scales do not carry over between parts. Positions count from the first letter of the parent shown.

Study 1 — technique: RNA Bind-n-Seq; molecule type: RNA; sample: in vitro; concentration: 1 µM; setting: whole 134-nt RNA, ends assumed; with: 150 mM KCl; reference: input library; reading: higher = stronger binding; measurement: log2 enrichment
Target: Ras GTPase-activating protein-binding protein 1, C-terminal RGG region (G3BP1, Homo sapiens, UniProt Q13283)
Chain of UniProt Q13283 (whole entry, looked up): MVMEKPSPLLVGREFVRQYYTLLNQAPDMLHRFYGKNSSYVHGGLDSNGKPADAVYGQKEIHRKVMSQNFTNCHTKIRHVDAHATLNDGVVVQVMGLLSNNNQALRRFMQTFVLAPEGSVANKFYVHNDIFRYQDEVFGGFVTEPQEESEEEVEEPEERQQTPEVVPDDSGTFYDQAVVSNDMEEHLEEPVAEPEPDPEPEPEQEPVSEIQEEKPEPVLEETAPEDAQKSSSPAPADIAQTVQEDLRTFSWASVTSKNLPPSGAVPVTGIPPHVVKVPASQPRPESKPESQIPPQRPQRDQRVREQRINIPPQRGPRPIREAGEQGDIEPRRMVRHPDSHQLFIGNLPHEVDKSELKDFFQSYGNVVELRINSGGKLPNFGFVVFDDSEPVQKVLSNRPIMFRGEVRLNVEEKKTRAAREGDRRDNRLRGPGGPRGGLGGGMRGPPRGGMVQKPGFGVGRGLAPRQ
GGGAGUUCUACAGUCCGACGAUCACCACGCAGGUGGGCAUCUUUGGGAAGUGGGGCAAGGGGGGGAUAGGGAGGGGGGUAACACUUUGGGAACAGGUGGUCCCAGGUCGUUUCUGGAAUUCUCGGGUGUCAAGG: -1.01
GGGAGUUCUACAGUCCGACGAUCCUCAAGUCCUGUGCUACACAUCGUAUGUACCGAAUCGGGGUGGGGUGGGUGGGAAAGUAUUAUGUUACGCCGUUCGGAUCUGCACUUCCAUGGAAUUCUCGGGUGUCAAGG: 1.58
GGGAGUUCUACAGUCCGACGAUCAAGUCCUGUGCUACACAUCGUAUGUACCGAAUCGGCCCCGGCCCCGGGGCCCCGGGAAAGUAUUAUGUUACGCCGUUCGGAUCUGCACUUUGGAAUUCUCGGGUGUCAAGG: -2.21
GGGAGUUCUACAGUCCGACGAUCCUGUGCUACACAUCGUAUGUACCGAAUCAAAGUGUGUGUGUGUGUAAAGUGUGUGUGUAAAAAAGUAUUAUGUUACGCCGUUCGGAUCUGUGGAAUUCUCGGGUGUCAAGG: -0.467
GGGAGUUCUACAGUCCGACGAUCUGGGCAAUGUGUCGGCUGCAUGCACGAGCCAGGAACUGCGCAGCCUCUUCGAGCGCCGCGGACGCGUCAUCGAGUGUGACGUGGUGAAAGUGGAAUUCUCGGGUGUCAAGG: -1.64
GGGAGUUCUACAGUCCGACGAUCCUCAAGUCCUGUGCUACACAUCGUAUGUACCGAAUCGGGAAGGGAAGGAAGGGAAAGUAUUAUGUUACGCCGUUCGGAUCUGCACUUCCAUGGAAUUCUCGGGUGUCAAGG: -0.603
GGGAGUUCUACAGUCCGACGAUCUCAAGUCCUGUGCUACACAUCGUAUGUACCGAAUCGUGUGUGUGUGUGUGUGUGUAAAGUAUUAUGUUACGCCGUUCGGAUCUGCACUUCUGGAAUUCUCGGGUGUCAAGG: 0.958
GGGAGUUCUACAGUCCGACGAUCACCAGGCAGGUGGGCAUCUUUGGGAAGUGGGGCAAGGGGGGGAUAGGGAGGGGGGUAACACUUUGGGAACAGGUGGUCCCAGGUCGUUUCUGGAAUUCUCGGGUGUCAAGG: -1.08
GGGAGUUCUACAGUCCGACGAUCUCAAGUCCUGUGCUACACAUCGUAUGUACCGAAUCGGUUUGGUUUGGGUUUGGGGAAAGUAUUAUGUUACGCCGUUCGGAUCUGCACUUCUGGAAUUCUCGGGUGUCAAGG: -0.946
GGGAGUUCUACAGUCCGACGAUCUCAAGUCCUGUGCUACACAUCGUAUGUACCGAAUCGGGAAAAAGGGUGGGUGGGAAAGUAUUAUGUUACGCCGUUCGGAUCUGCACUUCCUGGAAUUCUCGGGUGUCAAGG: 1.47

Study 2 — technique: RNA Bind-n-Seq; molecule type: RNA; sample: in vitro; concentration: not given; reference: input RNA pool; reading: higher = stronger binding; measurement: bound/input enrichment
Target: RING finger protein unkempt homolog, zinc fingers 1-6, GST-SBP tag (UNK, Homo sapiens, UniProt Q9C0B0, residues 30-357)
Setting: RNA with constant flanks, human and mouse sites, ends assumed
Construct (chain): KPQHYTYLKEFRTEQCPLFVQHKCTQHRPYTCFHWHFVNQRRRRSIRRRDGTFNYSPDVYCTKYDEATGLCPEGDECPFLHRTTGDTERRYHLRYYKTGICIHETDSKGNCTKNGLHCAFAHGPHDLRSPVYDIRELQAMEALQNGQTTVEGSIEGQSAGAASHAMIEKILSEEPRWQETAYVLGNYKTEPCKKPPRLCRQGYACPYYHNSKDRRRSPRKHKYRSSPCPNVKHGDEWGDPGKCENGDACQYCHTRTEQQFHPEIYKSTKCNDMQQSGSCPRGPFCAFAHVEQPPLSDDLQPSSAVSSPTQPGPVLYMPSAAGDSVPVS
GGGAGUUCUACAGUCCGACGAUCUUGGAAUAAAUGAGUGAAAGUUGGACAUAGUUGUGCACACCUUCAGACCAGCACUUGGGAGGUGGAGGCAGAAGAACAGGACUUCAAAGUUACUAGGCUUCAUAGUAAAUUUGAGGCCAACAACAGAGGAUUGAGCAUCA: 0.233 ratio
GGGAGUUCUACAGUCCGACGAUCGGCUGUGGUAAGCGGGACCAUGCCUCCAACAUCUAUAAAGUGGAGGGUGGCUGUAUCACUAAGCUGGAGACCUUCAUUCAGGAGCACCUGCGGGUCAUUGGGGCGGUGGGCAUUGGCAUCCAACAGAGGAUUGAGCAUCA: 0.227 ratio
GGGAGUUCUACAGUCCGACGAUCGCUUUGGCUUAGGACGUUGCUUUUGUGGUUGGACAUCCCUGUCUGCUGCUCUCCAGACUUAGAUACUAUGCUCUCUGUCUUCUUUUUCUCCCUAUGCUUUGUAUUUGAAAAUAGGUCUUUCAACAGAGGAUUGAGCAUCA: 3.84 ratio
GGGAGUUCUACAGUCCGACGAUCACUUCCCCUUCAGUUGUAUCUUCUUACAGUGAUUGGUACAGUUAUUAGAUAUAAAGGUAACUGAUGUUAUUCGUCUUGUAUGGCUUUUAGUAUGUUUAUCAAGUGGCUAACAAAUGCAUUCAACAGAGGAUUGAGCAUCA: 1.95 ratio
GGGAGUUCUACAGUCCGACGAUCGAACCUCACUUUGUGGUAGUCCACUGCACAGGCUACAUCAAGGCCUGGCCACCAGCAGGUGUCUCCCUCCCAGAUGAUGACCCAGAGGCUGGCCAGGGGAGCAAAUUCUGCCUAGUGGCCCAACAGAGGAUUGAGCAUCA: 0.21 ratio
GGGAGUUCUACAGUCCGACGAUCACCCCCUUGACCCCCUACCUUUGAAGAGGCUUCGUGCAGGACUUUGAUGCUUGGGGUGUUCCGUGUUGACUCCCAGGUGGGCCUGGCUGCCCACUGCCCAUUCCUCUCAUAUUGGCACAUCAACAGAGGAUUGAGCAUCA: 0.131 ratio
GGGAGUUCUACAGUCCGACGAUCGUUUUGCCGUGUUCUGUUCAAGAGUAUCAGGUUGGACAGCUUUACUCUGUUGCAGAAGCGAGUAAGAAUGAAACUGGUGGUGGAGAAGGAAUCGAAGUCCUGAAGAAUGAACCUUAUGAACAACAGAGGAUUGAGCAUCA: 0.327 ratio
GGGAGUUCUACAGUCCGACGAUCCAGAAGUGGAUUGAGCAAGUAACUGGCAGAAGUUUUGGUGAUAAAGAUUUUCGGACAGGUUUAGAAAAUGGAAUCCUCCUCUGCGAGUUGCUGAAUGCUAUAAAGCCAGGACUUGUUAAACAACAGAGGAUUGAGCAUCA: 0.737 ratio
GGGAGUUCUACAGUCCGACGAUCAGCCGCUGCACCUCGAAAUGUGUGUUUUUUAGCCAGCUCCUUGCUGUACUGAUUCAGAUGCAGCUAAGGUUUCUGACCAUGGAACAAGGGCUGAUGAAGUUGGACCUGAGGCCUAGAGCCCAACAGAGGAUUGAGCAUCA: 0.0944 ratio
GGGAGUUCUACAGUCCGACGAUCUUCCCCCUCCCAGUACUAGUUAAUUUUGAGUAAUUGUAUUGUCAGAAAAGUGAUUAGUACUAUUUUUUUUUGUUGUUUCAAAAAAAAAAUUUUUGUGUGUGUGUGUUUUUUUUUUUUUUUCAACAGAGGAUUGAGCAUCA: 1.28 ratio
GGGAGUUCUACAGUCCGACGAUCAGCAAUCCAGAUCUCUAUGGUCCCUUUUGGAUAUGUGCCACGUUGGUCUUUGCCAUAGCAAUUAGUGGGAACCUUUCUAACUUCCUAAUCCAUCUGGGAGAGAAGACAUACCAUUAUGUGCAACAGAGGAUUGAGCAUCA: 0.117 ratio

Study 3 — technique: RNA Bind-n-Seq; molecule type: RNA; sample: in vitro; concentration: 365 nM; reference: no-protein control; reading: higher = stronger binding; measurement: RBNS enrichment (R)
Target: RNA binding protein fox-1 homolog 2, RRM domain, GST-SBP tag (RBFOX2, Homo sapiens, UniProt O43251-10, residues 100-194)
Setting: natural RNA segment, single round, ends assumed
Residues (chain): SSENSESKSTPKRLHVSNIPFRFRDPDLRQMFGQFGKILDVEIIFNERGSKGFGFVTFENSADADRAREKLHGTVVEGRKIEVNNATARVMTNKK
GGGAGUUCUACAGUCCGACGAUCCUAUGCCUCAGAAACUUCCUGGGAGUAAAUAUGGGAACAACUUUUCUAUUAAUACAUCUAAAUUUUCUAGUAUAUCCUGACAUUUUCCAUUCCUGCUCUGAAGUCACUUUUGGAAUUCUCGGGUGCCAA: 0.665
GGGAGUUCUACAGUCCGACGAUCCGACAGUGAAAAAGCUCUACUUCUACGCUGACCCAGGGAGGAAACACUAGGACCCUGUUGUAUCCUCAACUGCAAGUUUCUGGACUAGUCUCCCAACGUUUGCCUCCCAAUGGAAUUCUCGGGUGCCAA: 0.33
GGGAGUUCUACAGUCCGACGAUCCCAGUUUCUAUGGCCUUGCUGUGGACUUUCCCCUCUUUGUCGGUAACCUUUCGCCUAUGGCUUACAGUUCGACAUUUAAUUUAUUAGCGCUGCUCUGCACCCCUCCUGCCUGGAAUUCUCGGGUGCCAA: 0.892
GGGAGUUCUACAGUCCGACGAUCGUACCCGAGAGGCUAGCUAUUUAAGGGAACACAGAGGUAAAUUCUUUUGUAAAGAAUCCUUUUGUAAUGCAAACCAAUUAUCCCUGAAGGUAUCUGUUUUGUAAGUUUGGUGGAAUUCUCGGGUGCCAA: 0.452
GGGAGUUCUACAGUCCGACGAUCGGUACUUUGGGGGAACAAAAUAGUCAGGGAUAUUGGUUCCCCUUUGAGGAGGUGCUGCUGUUUGCUUUUAGGUAUGAGUGCUCAGGGGCCCUCACUGAAAGAGCCCAUGCUGGAAUUCUCGGGUGCCAA: 1.04
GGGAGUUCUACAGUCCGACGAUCAACUGGCCACUCAAUACAGUCUCUCCCUCAAUAGCACAGAAGGUCCUUGAGCUCCCAGGCCGCAGCAACACAUGCAGUGGGACGCAGGAAGCGUGGGCGAGCAUUCUCCUUGGAAUUCUCGGGUGCCAA: 0.655
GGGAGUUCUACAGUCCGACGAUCAAACCAAGCUCAGGGCCCCAACCCUAGAAGGGCCCAAAUGAGAGAAUGGUACUUAGGGAUGGAAAACGGGCCUGGCUAGAGCUUCGGGUGUGUGUGUCUGUCUGUGUGUAUGGAAUUCUCGGGUGCCAA: 1.49
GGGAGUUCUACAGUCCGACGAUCAAUUAUCUAAAAUUCAAUAAAAUUUUAUUCAUAUAAAAUAAGUUGUCAUUAAUUAUCAAUACUAACGAGUAUGUCAUUUUAAAACUUAGUAUUCUCUUUAAUGUUACAAGUGGAAUUCUCGGGUGCCAA: 1.16
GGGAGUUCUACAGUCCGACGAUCUUUGAAAACAGCUAGCUCUGCAUUUUCAUACUAGUGUAGAGUUUGUUAUGAAAUAUUUUUACUAUGACUCCUUCAACAACUAAAUACGAACUGCCUGUUCUCUAAACCUCUGGAAUUCUCGGGUGCCAA: 0.693

Study 4 — target: CCNA1, cyclin fold, Cln2 fusion (human); technique: yeast growth competition, sequencing; sample: yeast; setting: weak parent motif; reference: not given; reading: higher = stronger binding; measurement: normalised enrichment score
Starting sequence: ITGB3BP docking peptide (human); MPVKRSLKLDGLL; partner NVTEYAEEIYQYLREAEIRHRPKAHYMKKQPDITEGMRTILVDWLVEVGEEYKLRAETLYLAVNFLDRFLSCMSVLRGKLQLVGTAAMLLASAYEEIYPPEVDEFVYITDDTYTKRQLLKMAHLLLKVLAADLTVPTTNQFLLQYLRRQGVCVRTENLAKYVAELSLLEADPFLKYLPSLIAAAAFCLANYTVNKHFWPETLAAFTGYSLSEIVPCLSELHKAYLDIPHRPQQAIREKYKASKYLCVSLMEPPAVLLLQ
MPVKKSLKFDGLL [R5K L9F]: -0.048
MPVKKSLKLDGLL [R5K]: -0.046
APVKRSLKLDGLL [M1A]: 0.412
MPVKRALKLDGLL [S6A]: 0.251
MPVKRSLKLDALL [G11A]: 0.234
MPAKRSLKLDGLL [V3A]: 0.483
MPVKRSLKLDGLA [L13A]: 0.535
MPVARSLKLDGLL [K4A]: 0.292
MPVKASLKLDGLL [R5A]: 0.023
MPVKASAKLDGLL [R5A L7A]: 0.175

Excerpt of the above (study 2):
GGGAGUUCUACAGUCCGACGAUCACUUCCCCUUCAGUUGUAUCUUCUUACAGUGAUUGGUACAGUUAUUAGAUAUAAAGGUAACUGAUGUUAUUCGUCUUGUAUGGCUUUUAGUAUGUUUAUCAAGUGGCUAACAAAUGCAUUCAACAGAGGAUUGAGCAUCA: 1.95 ratio
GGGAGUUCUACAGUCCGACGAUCUUGGAAUAAAUGAGUGAAAGUUGGACAUAGUUGUGCACACCUUCAGACCAGCACUUGGGAGGUGGAGGCAGAAGAACAGGACUUCAAAGUUACUAGGCUUCAUAGUAAAUUUGAGGCCAACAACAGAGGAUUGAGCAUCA: 0.233 ratio
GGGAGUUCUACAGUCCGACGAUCGAACCUCACUUUGUGGUAGUCCACUGCACAGGCUACAUCAAGGCCUGGCCACCAGCAGGUGUCUCCCUCCCAGAUGAUGACCCAGAGGCUGGCCAGGGGAGCAAAUUCUGCCUAGUGGCCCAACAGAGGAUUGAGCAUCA: 0.21 ratio
